# Assay results from different studies.
# Parts stem from different laboratories: compare values within a part only.

# Set 1
# Target: Sal-like protein 4, full length isoform B (SALL4, Homo sapiens, UniProt Q9UJQ4-2, residues 1-616)
# Method: universal PBM
# Form: double-stranded DNA, one strand shown
# Matrix: in vitro
# Tested at: not given
# Notes: 8-mer, flanks averaged, mean of replicates
# Direction: higher = stronger binding
Oligonucleotide,E-score
AGAAATCC,-0.0355
GGAGCGCC,-0.357
ACGCAGAG,-0.247
CTAGTGGC,-0.0669
CCGACAAG,-0.141
CACGAGAG,-0.168
GAACATGA,0.0795
CGCACACG,-0.201
ATCCTGAG,0.0542
GGTGCCAA,-0.171
GAAAGTTC,-0.0647
ATTAAATG,0.247
AGCACATG,-0.057
GAGGCCAC,-0.269
CCCTCGTA,-0.148
GAGAACCA,-0.15
GGTAACAC,-0.0445
GTATGGAA,0.0746
ATGTGATC,0.126
ACAAGCAA,0.144
ACGGGCAG,-0.0736
GAATGCGA,0.0436
CAGGCCGA,-0.167

# Set 2
# Target: PABPC1L2, full length, GST fusion (mouse, UniProt A0ABA7IW68)
# Method: RNAcompete
# Form: RNA
# Matrix: in vitro
# Tested at: 20 nM
# Notes: 7-mer, probes averaged, single round
# Relative to: mean of 7-mers
# Direction: higher = stronger binding
# Target sequence (chain): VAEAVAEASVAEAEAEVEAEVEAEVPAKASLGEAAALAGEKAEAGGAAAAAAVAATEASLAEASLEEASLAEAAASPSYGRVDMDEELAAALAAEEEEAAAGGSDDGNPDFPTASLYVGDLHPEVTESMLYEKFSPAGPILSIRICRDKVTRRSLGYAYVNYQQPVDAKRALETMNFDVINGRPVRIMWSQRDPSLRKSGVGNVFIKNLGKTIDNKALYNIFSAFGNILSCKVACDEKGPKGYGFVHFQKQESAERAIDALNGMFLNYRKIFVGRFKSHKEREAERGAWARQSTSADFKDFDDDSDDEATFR
Oligonucleotide,7-mer Z-score
UGCUUGG,-0.177
CGACUCA,-0.104
GUCAAGC,-0.139
UGCUGGG,0.00617
CUGGAGA,0.0189
UGAUCUG,-0.222
GCGUGAA,-0.0319
UCCGAUC,-0.376
AGGCCUG,-0.0319
CCAGCAA,0.0406
UAAUAGA,-0.0138
UAUUCUU,-0.362
GGUGUGU,-0.204
CAGCGAU,0.0442
CACAGUG,-0.213
CUUUUCC,-0.387
GGGUUGC,-0.00108
UGCACCC,-0.193
ACAAUCA,0.16

# Set 3
# Target: Histone acetyltransferase KAT6A, both winged helices, GST fusion (KAT6A, Homo sapiens, UniProt Q92794, residues 1-181)
# Method: protein binding microarray
# Form: double-stranded DNA, one strand shown
# Matrix: in vitro
# Tested at: not given
# Notes: 8-mer, flanks averaged, mean of 2 arrays, mostly near background
# Relative to: not given
# Direction: higher = stronger binding
# Residues (chain): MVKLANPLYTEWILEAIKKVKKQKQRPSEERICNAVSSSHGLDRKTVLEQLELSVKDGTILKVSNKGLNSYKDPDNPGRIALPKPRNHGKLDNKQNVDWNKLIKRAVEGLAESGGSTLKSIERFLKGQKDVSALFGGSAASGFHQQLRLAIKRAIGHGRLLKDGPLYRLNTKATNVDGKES
Oligonucleotide,E-score
CGTGGTCC,0.0472
AAACACCA,-0.142
CTACACCC,-0.219
GCAGTCAC,-0.00814
AGTTGGGC,-0.226
CTAGGACC,-0.0801
CATTGAGG,-0.166
CGTGAAGA,0.0743
GGGGTTGA,-0.0957
ATATCCCG,0.203
GGGATACA,-0.169
AACGAGTT,-0.0989
CGCTACCC,0.136
CGATACGC,0.231
ATCAGCAA,-0.128
CTACATTA,-0.176
AGTGAGAA,-0.0881
GAGGTGGC,-0.24
CTCAAGTA,-0.174

# Set 4
# Target: Ras GTPase-activating protein-binding protein 1, full length (G3BP1, Homo sapiens, UniProt Q13283)
# Sequence of UniProt Q13283 (whole entry, looked up): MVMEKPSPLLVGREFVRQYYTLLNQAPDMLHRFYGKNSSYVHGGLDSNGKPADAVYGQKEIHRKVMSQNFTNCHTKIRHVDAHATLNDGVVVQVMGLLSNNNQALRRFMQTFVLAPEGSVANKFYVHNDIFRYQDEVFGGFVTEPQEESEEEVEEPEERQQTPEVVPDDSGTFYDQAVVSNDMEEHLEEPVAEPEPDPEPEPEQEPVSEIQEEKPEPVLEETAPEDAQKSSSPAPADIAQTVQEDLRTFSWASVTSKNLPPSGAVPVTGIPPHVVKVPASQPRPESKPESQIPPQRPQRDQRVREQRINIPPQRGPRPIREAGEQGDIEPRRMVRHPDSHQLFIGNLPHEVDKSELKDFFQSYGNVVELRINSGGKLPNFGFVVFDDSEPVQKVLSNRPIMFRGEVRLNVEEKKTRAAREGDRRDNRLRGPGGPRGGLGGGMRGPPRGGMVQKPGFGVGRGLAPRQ
# Method: RNA Bind-n-Seq
# Form: RNA
# Matrix: in vitro
# Tested at: 200 nM
# Notes: whole 134-nt RNA, ends assumed
# With: 150 mM LiCl
# Relative to: input library
# Direction: higher = stronger binding
# Library: 7-deaza-guanosine replaces G
Oligonucleotide,log2 enrichment
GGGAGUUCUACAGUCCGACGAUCUGGCCCUGGUGGCAUGCGGGGAGGAAGAGGUGGCCUCAUGGAUCGUGGUGGUCGCGGUGGAAUGUUCAGAGGUGGCCGUGGUGGAGACAGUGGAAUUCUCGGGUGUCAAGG,0.185
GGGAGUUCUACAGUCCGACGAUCCAAGUCCUGUGCUACACAUCGUAUGUACCGAAUCGGUUUUUGGUUUUUUUGGUGGAAAGUAUUAUGUUACGCCGUUCGGAUCUGCACUUCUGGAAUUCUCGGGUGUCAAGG,-0.841
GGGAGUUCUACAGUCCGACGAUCCUCAAGUCCUGUGCUACACAUCGUAUGUACCGAAUCGGAGGUUUUUGGAAAGGAAAGUAUUAUGUUACGCCGUUCGGAUCUGCACUUCCAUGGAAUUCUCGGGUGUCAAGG,-0.133
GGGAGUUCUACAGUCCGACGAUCUUUCUAGGGAAGGUGCUUCUGGAAAAGUUGCUGAGGUCUUGUCCUAAGGUGAAUUCAGUAUAUGUUUUGGUGAGGCAGAAAGCUGGACAGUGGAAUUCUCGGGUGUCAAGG,-2.1
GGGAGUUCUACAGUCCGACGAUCGUCCUGUGCUACACAUCGUAUGUACCGAAUCGGGGUUUGGGGUUUUUUUGGGGAGGGGAAAGUAUUAUGUUACGCCGUUCGGAUCUGCACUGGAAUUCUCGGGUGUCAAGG,0.478
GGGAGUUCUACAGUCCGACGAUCCUCAAGUCCUGUGCUACACAUCGUAUGUACCGAAUCGGGGCGGGCGGGGCGGGAAAGUAUUAUGUUACGCCGUUCGGAUCUGCACUUCCAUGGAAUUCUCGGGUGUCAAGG,-0.131
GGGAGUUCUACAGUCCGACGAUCCUGUGCUACACAUCGUAUGUACCGAAUCGGCCCCCCCGGGGCCCCCCCGGGCCCCCCCGGGGAAAGUAUUAUGUUACGCCGUUCGGAUCUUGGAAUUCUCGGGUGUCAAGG,-1.14
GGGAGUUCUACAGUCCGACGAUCGUCCUGUGCUACACAUCGUAUGUACCGAAUCGGGGAAAGGGGUGGGGUUUUUUUGGGGAAAGUAUUAUGUUACGCCGUUCGGAUCUGCACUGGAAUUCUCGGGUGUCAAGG,0.0134
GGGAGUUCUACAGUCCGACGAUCUAACUUUAGAGGAGGAUCUGAUGGAUAUGGCAGUGGACGUGGAUUUGGUGAUGGCUAUAAUGGGUAUGGAGGAGGACCUGGAGGUGGCAAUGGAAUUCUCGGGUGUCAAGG,-0.0497
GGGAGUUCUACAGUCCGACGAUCCCUCAAGUCCUGUGCUACACAUCGUAUGUACCGAAUCGGCGGGGCGGCGGGGAAAGUAUUAUGUUACGCCGUUCGGAUCUGCACUUCCAGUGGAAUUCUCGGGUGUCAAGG,0.142
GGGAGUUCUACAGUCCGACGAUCGUGCUACACAUCGUAUGUACCGAAUCGGGGAAAAAAAGGGGAAAAAAAGGGGUUUUUUUGGGGAAAGUAUUAUGUUACGCCGUUCGGAUCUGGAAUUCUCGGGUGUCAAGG,0.05

# Set 5
# Target: Prothrombin, mature alpha-thrombin (F2, Homo sapiens, UniProt P00734)
# Method: aptamer microarray, sandwich
# Form: DNA with 2'F-ANA
# Matrix: in vitro
# Tested at: 200 nM
# Notes: whole 15-mer aptamer, many near background
# With: Cy3 exosite-II aptamer, 400 nM
# Direction: higher = stronger binding
# Oligonucleotide: GGTTGGTGTGGTTGG
Modification,mean fluorescence intensity [a.u.]
2'F-ANA at 2 4 5 6 8 9 12 13 15,85.1
2'F-ANA at 1 2 3 4 7 8 9 10 11,60.6
2'F-ANA at 1 2 3 4 6 13,243
2'F-ANA at 1 6 8 10 11 12 13 14 15,49
2'F-ANA at 2 3 4 5 6 7 10 11 13 14 15,58.3
2'F-ANA at 3 4 5 9 10 12 13 14 15,48
2'F-ANA at 2 6 7 10 12 15,163
2'F-ANA at 2 3 7 11 12 15,1020
2'F-ANA at 3 4 9 10 13 14 15,184
2'F-ANA at 6 7 10 12 14,134
2'F-ANA at 1 4 5 6 8 9 12 13 14 15,46.7
2'F-ANA at 2 3 4 10 12 14 15,194
2'F-ANA at 3 5 6 8 9 10 11 12,103
2'F-ANA at 2 7 9 15,446
2'F-ANA at 1 2 6 7 10 13 14,89.5
2'F-ANA at 5 6 12,187
2'F-ANA at 2 3 4 5 7 9,104
2'F-ANA at 1 3 10 12 13,128
2'F-ANA at 3 4 8 9 10 14,268
2'F-ANA at 1 5 6 7 8 9 10 11 14 15,50.8
2'F-ANA at 1 2 5 6 7 9 12 13,76.7
2'F-ANA at 3 6 7 8 9 10 11,482
2'F-ANA at 3 5 8 10 11 14,67
2'F-ANA at 1 4 5 8 12 14,76.7
2'F-ANA at 2 3 6 7 8 10 11 12 14,275

# Repeated from above (set 5):
Modification,mean fluorescence intensity [a.u.]
2'F-ANA at 2 4 5 6 8 9 12 13 15,85.1
2'F-ANA at 2 3 4 5 7 9,104
2'F-ANA at 1 4 5 6 8 9 12 13 14 15,46.7
2'F-ANA at 2 3 7 11 12 15,1020
2'F-ANA at 3 5 8 10 11 14,67
2'F-ANA at 3 5 6 8 9 10 11 12,103
2'F-ANA at 3 4 9 10 13 14 15,184
2'F-ANA at 2 3 4 5 6 7 10 11 13 14 15,58.3
2'F-ANA at 1 2 3 4 7 8 9 10 11,60.6
2'F-ANA at 2 3 4 10 12 14 15,194
2'F-ANA at 1 4 5 8 12 14,76.7
2'F-ANA at 2 6 7 10 12 15,163
